Measurements of several laboratories.
Parts stem from different laboratories: compare values within a part only.

Set 1
Target: HLA class I histocompatibility antigen, A alpha chain, allele A*80:01 (Homo sapiens, UniProt P04439)
Effect on: peptide-MHC binding
Molecule type: peptide
Tested at: concentration not given
Sequence | binding
GIADFIIFK | inactive
LSDAIFDDL | inactive
MAMTGLPQA | inactive
QVNDVLHSV | inactive
YLDNVGVHI | inactive
GHMMVIFRL | inactive
ILNRKAIDF | inactive
FQAGWEDPT | inactive
RAFWGQVQK | inactive
WHTTKGAAL | inactive
RQRHYFDSA | inactive
MAYGFFNNI | inactive
EFKSRFFVM | inactive

Set 2
Target: Fragile X messenger ribonucleoprotein 1, C-terminal low-complexity region (Fmr1, Mus musculus, UniProt P35922)
Technique: RNA Bind-n-Seq
Molecule type: RNA
Matrix: in vitro
Tested at: 200 nM
Setting: whole 134-nt RNA, ends assumed
Added: 150 mM KCl
Relative to: input library
Direction: higher = stronger binding
Shared flanks, not repeated: GGGAGUUCUACAGUCCGACGAUC … UGGAAUUCUCGGGUGUCAAGG
Strand | log2 enrichment
UCCUGUGCUACACAUCGUAUGUACCGAAUCGGGGAAAAAGGGGAAAAAGGGGUUUGGGGAAAGUAUUAUGUUACGCCGUUCGGAUCUGCA | 0.618
GUCCUGUGCUACACAUCGUAUGUACCGAAUCGGGUUUUUGGGUUUUUUUGGGAAAGGGAAAGUAUUAUGUUACGCCGUUCGGAUCUGCAC | 0.00724
CACAGACAACACGCACCCACAAAGACACAGAGGGAAGGGGUUGGGAUGGGGACAGGGUGCACAGCAGGGCGGGGUAGGACCCCAGCCCCU | 1.23
CAGCAGCAGAGUGAGUGGAUUUUAUUUUUCGUUAUUGUUGGUGGUUUAAAAAAUUCCCCCCAUGUAAUUAUUGUGAACACCUUGCUUUGU | -0.13
AGUCCUGUGCUACACAUCGUAUGUACCGAAUCGGAAAAAGGAAAAAGGGAAAAAGGGAAAGUAUUAUGUUACGCCGUUCGGAUCUGCACU | -0.892
UGCUGUGCAGCGGCAUCGGCCCACUGUGGUGGAAUGUCUACGGGAAACUGAUGCCUCCCUCAGCCGGUGAGCAGUGAUAGAGGGGACAGG | -2.18
CAAGUCCUGUGCUACACAUCGUAUGUACCGAAUCGGGUUUGGGGUUUGGUUUGGGGAAAGUAUUAUGUUACGCCGUUCGGAUCUGCACUU | 0.433
UCCUGUGCUACACAUCGUAUGUACCGAAUCGGGGAAAAAGGGGAGGGGUUUUUUUGGGGAAAGUAUUAUGUUACGCCGUUCGGAUCUGCA | 0.525

Set 3
Target: UBE2W UBC core domain (UniProt Q96B02)
Technique: yeast two-hybrid
Matrix: yeast
Setting: mostly zero background
Relative to: not given
Direction: higher = stronger interaction
B1: TRIM40 RING domain (UniProt Q6P9F5); chain LQKDNQEEGVCPICQESLKEAVSTNCGHLFCRVCLTQHVEKASASGVFCCPLCRKPCSEEVLG
B2: TRIM4 RING domain (UniProt Q9C037); chain EAEDIQEELTCPICLDYFQDPVSIECGHNFCRGCLHRNWAPGGGPFPCPECRHPSAPAALRP
B3: TRIML1 RING domain (UniProt Q8N9V2); chain LMENLREELTCFICLDYFSSPVTTECGHSFCLVCLLRSWEEHNTPLSCPECWRTLEGPHFQS
B4: TRIM43 RING domain (UniProt Q96BQ3); chain FSHAFQKELTCVICLNYLVDPVTICCGHSFCRPCLCLSWEEAQSPANCPACREPSPKMDFKT
B5: SH3RF2 RING domain (UniProt Q8TEC5); chain DDLTLLDLLECPVCFEKLDVTAKVLPCQHTFCKPCLQRVFKAHKELRCPECRTPVFSNIEAL
B6: RNF38 RING domain (UniProt Q9H0F5); chain PNNHQSEQTLCVVCMCDFESRQLLRVLPCNHEFHAKCVDKWLKANRTCPICRADASEVHRDS
B7: VPS41 RING domain (UniProt P49754); chain KGVLVDEENICESCLSPILPSDAAKPFSVVVFHCRHMFHKECLPMPSMNSAAQFCNICSAKNRGPGSAI
Construct (chain): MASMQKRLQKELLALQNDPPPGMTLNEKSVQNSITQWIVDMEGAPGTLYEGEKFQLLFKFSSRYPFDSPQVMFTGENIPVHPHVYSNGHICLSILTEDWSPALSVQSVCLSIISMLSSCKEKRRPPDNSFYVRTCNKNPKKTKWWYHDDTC
Sequence | lacZ reporter activity
B1 (TRIM40 RING domain) | 0
B2 (TRIM4 RING domain) | 0
ASLPTSEEDLCPICYAHPISAVFQPCGHKSCKACINQHLMNNKDCFFCKTTIVSVEDWE (RNF123 RING domain (UniProt Q5XPI4)) | 0
B3 (TRIML1 RING domain) | 0
GAAPGPEAAECLVCSELALLVLFSPCQHRTVCEECARRMKKCIRCQVVVSKKLRPD (MIB2 RING domain (UniProt Q96AX9)) | 0
B4 (TRIM43 RING domain) | 0
B5 (SH3RF2 RING domain) | 0
B6 (RNF38 RING domain) | 0
B7 (VPS41 RING domain) | 0

Set 4
Target: Runt-related transcription factor 3, Runt domain (RUNX3, Homo sapiens, UniProt Q13761, residues 53-186)
UniProt Q13761, sequence (53-186, looked up): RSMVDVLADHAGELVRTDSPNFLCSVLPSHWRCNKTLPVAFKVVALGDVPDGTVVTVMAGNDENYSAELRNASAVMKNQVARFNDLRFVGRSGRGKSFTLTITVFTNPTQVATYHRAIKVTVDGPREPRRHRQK
Technique: protein-binding microarray
Molecule type: hairpin DNA
Matrix: in vitro
Tested at: not given
Setting: whole hairpin DNA, median over replicate spots
Relative to: not given
Direction: higher = stronger binding
Strand | median fluorescence [a.u.]
GAGGCCTGTTGTGTTTGGCCTCCTGGCCAAACACAACAGGCCTCACACTC | 4320
GAGGCCTGTTGTGCGTGGCCTCCTGGCCACGCACAACAGGCCTCACACTC | 4750
GAGGCCTGTTCGGGTTGGCCTCCTGGCCAACCCGAACAGGCCTCACACTC (5mC at 11) | 4950
CTCAGTTCTGTGGGTTGGACTCCTGTCCAACCCACAGAACTGAGACACTC | 4130
GAGGCCTATTGTGGTTGGCCTCCTGGCCAACCACAATAGGCCTCACACTC | 5050
GAGGCCTGTTGCGGTTAGCCTCCTGGCTAACCGCAACAGGCCTCACACTC | 11100
GAGGCCCGTTGCGGTTGGCCTCCTGGCCAACCGCAACGGGCCTCACACTC (5mC at 37) | 9070
GAGGCCTGTCGCGGTAGGCCTCCTGGCCTACCGCGACAGGCCTCACACTC | 5310

Repeated from above (set 1):
Sequence | binding
EFKSRFFVM | inactive
LSDAIFDDL | inactive
GHMMVIFRL | inactive
FQAGWEDPT | inactive
MAYGFFNNI | inactive
ILNRKAIDF | inactive
